Published values gathered from unrelated publications.
Each line is one published result; not all experiments were run side by side. “And” joins repeats or separate records; there may be more than shown. ± marks the error that the study gave.

SMILES = CC#CC(=O)N1CCC[C@H]1c1nc(-c2ccc(C(=O)Nc3ccccn3)cc2)c2c(N)nccn12; test system = mild hepatic impairment (Child-Pugh A), plasma; setting = oral, 50 mg single; how to read = reference: healthy subjects; endpoint = AUC increase; value = 1.46 fold and 1.5 fold
SMILES = COc1cc2c(cc1OC)CN(CCc1ccc(NC(=O)c3cc(OC)c(OC)cc3NC(=O)c3cnc4ccccc4c3)cc1)CC2; test system = human, plasma; setting = intravenous infusion, 6 mg/kg, up to 24 h after infusion end; endpoint = AUC; value = 19700 ng·h/mL
SMILES = CNCc1ccc(-c2[nH]c3cc(F)cc4c3c2CCNC4=O)cc1; test = noncompartmental analysis; test system = patients, plasma; setting = oral, 600 mg twice daily, day 1, together with: bevacizumab infusion; endpoint = AUC at steady state; value = 14900 ± 2600 ng·h/mL
SMILES = CC(C)(C)c1cc(C(C)(C)C)c(NC(=O)c2c[nH]c3ccccc3c2=O)cc1O; test system = healthy subjects, plasma; setting = oral, 50 mg ivacaftor once daily, together with: tezacaftor 25 mg, itraconazole 200 mg; how to read = reference: with over without itraconazole; endpoint = AUC ratio; value = 15.6
SMILES = CC[C@@H](C)[C@@H]1NC(=O)[C@H]([C@@H](C)CC)NC(=O)[C@@H](Cc2c[nH]c3ccccc23)NC(=O)CCSCC[C@@H](C(=O)N(C)[C@H](CO)CCCN)NC(=O)[C@H](CC(N)=O)NC1=O; test system = perfused human placental cotyledon; setting = 1.2 µM, 1 to 120 min, maternal to fetal, together with: antipyrine 531 µM; endpoint = AUC of placental transfer; value = 1250 ± 437 %·min
SMILES = Cn1cnc2c(F)c(Nc3ccc(Br)cc3Cl)c(C(=O)NOCCO)cc21; test system = healthy subjects, plasma; setting = oral, 50 mg single dose, LS mean; endpoint = AUC; value = 2620 ng·h/mL
SMILES = C[C@@H](Oc1ccc(S(C)(=O)=O)cc1C(=O)N1C[C@@H]2C[C@]2(c2cc(C(F)(F)F)on2)C1)C(F)(F)F; test system = healthy young subjects, plasma; setting = oral, 25 mg, fed; endpoint = AUC at steady state; value = 12.2 µM·h
SMILES = O=C1CCc2ccc(OCCCCN3CCN(c4cccc(Cl)c4Cl)CC3)cc2N1; test system = healthy Japanese men, CYP2D6 IM, plasma; setting = oral, 3 mg aripiprazole single, together with: paroxetine 20 mg/day; endpoint = AUC; value = 1700 ± 192 ng·h/mL
SMILES = Nc1nc(NC2CC2)c2ncn([C@H]3C=C[C@@H](CO)C3)c2n1; test system = HIV-infected children and adolescents, Tanner stage 3-5, plasma; setting = oral, 8 mg/kg, 0 to 8 h; endpoint = AUC; value = 8900 ng·h/mL
SMILES = O=C(CCCCCCC(=O)Nc1ccccc1)NO; test system = cancer patients, serum; setting = oral, 600 mg, cycle 1 day 2, AUC 0-7 h, together with: flavopiridol 30 to 30 mg/m^2; endpoint = AUC; value = 4.35 µM·h
SMILES = O=C(O)C[C@H](O)C[C@H](O)/C=C/c1c(C2CC2)nc2ccccc2c1-c1ccc(F)cc1; test system = healthy Chinese female volunteers, plasma; setting = oral, 2 mg once daily, multiple dose; endpoint = AUC at steady state; value = 280 ng·h/mL
SMILES = CN1CCN(c2ccc3nc(-c4c(N)c5c(F)cccc5[nH]c4=O)[nH]c3c2)CC1; test system = patients, plasma; setting = oral, 300 mg, day 1, AUC 0-24 h maximum concurrent dosing, together with: gemcitabine and capecitabine; endpoint = AUC; value = 5390 ng·h/mL

Excerpt of the above:
SMILES = Nc1nc(NC2CC2)c2ncn([C@H]3C=C[C@@H](CO)C3)c2n1; test system = HIV-infected children and adolescents, Tanner stage 3-5, plasma; setting = oral, 8 mg/kg, 0 to 8 h; endpoint = AUC; value = 8900 ng·h/mL
SMILES = O=C(CCCCCCC(=O)Nc1ccccc1)NO; test system = cancer patients, serum; setting = oral, 600 mg, cycle 1 day 2, AUC 0-7 h, together with: flavopiridol 30 to 30 mg/m^2; endpoint = AUC; value = 4.35 µM·h
